Measured values pooled from the literature.
Lines come from different studies, so protocols differ. ± gives the spread as reported.
C1-hpah: p-hydroxyphenylacetate 3-hydroxylase, reductase component (C1-hpah, Acinetobacter baumannii, UniProt Q6Q271)
Sequence of UniProt Q6Q271 (whole entry, looked up): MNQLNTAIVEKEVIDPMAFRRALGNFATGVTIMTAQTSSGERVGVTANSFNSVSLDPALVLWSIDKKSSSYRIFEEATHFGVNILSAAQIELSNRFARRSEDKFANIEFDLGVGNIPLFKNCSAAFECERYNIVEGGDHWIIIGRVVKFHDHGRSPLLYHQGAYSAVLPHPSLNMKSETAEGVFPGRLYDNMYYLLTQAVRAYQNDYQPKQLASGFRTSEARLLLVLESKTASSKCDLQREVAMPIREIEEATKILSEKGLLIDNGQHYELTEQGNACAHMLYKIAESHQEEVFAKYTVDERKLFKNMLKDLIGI
PPO3: PPO3 (Agaricus bisporus, UniProt C7FF04)
Sequence of UniProt C7FF04 (whole entry, looked up): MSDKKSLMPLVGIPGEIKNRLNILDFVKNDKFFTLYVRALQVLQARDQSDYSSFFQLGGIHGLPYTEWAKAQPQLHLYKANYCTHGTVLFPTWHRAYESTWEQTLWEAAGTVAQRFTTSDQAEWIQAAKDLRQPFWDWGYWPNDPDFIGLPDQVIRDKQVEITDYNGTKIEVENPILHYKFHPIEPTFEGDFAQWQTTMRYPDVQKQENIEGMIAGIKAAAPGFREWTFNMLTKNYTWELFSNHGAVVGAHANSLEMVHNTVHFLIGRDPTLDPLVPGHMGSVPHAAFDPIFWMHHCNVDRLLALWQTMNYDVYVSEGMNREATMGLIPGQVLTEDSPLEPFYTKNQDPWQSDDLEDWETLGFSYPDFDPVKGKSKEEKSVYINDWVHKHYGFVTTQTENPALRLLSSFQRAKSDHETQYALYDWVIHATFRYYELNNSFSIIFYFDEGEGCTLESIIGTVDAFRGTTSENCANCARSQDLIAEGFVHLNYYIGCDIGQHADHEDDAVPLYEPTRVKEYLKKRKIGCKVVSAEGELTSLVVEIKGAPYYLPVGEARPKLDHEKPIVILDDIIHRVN
T1: DNA G4 pilE G-quadruplex (Neisseria gonorrhoeae); GGGTGGGTTGGGTGGG
T2: DNA hairpin, hairpin, TTTT loop; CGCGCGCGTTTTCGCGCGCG
Sequence of UniProt O15552 (whole entry, looked up): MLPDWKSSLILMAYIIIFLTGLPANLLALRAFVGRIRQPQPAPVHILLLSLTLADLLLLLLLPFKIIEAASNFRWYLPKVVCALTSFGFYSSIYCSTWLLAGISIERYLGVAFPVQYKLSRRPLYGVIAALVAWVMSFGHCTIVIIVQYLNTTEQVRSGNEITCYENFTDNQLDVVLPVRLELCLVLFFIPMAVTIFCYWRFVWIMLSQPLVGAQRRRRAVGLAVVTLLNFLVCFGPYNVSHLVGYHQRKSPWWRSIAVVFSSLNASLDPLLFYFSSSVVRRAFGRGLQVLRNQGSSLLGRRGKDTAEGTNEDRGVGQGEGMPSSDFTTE
Sequence of UniProt Q96DZ1 (whole entry, looked up): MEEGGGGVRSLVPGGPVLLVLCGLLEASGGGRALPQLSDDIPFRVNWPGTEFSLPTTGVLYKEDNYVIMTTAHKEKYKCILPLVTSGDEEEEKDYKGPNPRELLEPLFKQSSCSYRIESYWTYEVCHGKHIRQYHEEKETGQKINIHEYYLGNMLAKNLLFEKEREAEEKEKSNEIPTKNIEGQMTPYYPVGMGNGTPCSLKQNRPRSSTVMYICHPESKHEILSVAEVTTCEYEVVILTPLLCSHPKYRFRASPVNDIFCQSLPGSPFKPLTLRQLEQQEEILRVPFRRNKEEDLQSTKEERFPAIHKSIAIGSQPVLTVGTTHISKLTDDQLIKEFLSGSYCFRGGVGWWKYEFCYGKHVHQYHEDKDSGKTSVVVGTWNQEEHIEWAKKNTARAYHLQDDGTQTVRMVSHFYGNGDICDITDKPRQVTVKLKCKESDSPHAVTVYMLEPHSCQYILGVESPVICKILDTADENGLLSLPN
Sequence of UniProt P16257 (whole entry, looked up): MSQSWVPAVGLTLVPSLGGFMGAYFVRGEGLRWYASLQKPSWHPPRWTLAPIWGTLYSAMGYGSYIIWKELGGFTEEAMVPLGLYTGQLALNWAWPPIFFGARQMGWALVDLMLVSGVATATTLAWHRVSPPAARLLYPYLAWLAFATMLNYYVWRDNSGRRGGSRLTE
Sequence of UniProt Q8I5R7 (whole entry, looked up): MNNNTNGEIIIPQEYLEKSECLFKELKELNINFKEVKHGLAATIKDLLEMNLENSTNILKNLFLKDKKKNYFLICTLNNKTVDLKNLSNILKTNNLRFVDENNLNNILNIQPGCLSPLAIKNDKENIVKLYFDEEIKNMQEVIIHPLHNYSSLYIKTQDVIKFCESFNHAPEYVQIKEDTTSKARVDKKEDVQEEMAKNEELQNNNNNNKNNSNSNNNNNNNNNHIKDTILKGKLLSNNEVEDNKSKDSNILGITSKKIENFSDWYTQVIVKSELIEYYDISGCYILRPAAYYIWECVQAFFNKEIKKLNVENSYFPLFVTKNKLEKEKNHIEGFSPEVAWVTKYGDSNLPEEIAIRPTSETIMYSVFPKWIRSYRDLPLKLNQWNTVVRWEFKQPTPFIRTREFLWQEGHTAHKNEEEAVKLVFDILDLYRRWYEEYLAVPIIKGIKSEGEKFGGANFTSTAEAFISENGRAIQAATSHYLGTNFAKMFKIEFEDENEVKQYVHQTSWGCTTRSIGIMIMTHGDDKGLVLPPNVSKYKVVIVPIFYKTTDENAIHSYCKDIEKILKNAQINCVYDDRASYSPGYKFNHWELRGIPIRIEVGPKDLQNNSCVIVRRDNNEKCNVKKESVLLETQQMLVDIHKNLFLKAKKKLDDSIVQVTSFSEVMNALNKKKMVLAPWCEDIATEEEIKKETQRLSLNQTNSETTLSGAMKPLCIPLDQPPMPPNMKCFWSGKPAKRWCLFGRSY
Sequence of UniProt P30518 (whole entry, looked up): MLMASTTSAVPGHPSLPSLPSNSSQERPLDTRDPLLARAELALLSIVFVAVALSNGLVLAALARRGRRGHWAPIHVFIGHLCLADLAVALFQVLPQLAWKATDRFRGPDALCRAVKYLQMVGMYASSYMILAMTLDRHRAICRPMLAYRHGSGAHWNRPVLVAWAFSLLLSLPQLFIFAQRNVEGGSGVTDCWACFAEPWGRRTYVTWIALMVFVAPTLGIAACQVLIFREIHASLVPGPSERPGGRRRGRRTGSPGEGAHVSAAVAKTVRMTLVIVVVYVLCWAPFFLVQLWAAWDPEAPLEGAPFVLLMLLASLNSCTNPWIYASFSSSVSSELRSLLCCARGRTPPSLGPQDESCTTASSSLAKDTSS
Sequence of UniProt P60900 (whole entry, looked up): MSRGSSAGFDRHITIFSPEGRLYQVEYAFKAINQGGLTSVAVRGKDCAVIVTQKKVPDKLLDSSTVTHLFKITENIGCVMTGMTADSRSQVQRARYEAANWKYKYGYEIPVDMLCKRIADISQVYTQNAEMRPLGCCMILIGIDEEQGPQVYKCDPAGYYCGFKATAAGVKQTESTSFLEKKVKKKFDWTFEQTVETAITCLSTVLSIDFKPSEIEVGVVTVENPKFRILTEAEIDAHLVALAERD
Sequence of UniProt Q00194 (whole entry, looked up): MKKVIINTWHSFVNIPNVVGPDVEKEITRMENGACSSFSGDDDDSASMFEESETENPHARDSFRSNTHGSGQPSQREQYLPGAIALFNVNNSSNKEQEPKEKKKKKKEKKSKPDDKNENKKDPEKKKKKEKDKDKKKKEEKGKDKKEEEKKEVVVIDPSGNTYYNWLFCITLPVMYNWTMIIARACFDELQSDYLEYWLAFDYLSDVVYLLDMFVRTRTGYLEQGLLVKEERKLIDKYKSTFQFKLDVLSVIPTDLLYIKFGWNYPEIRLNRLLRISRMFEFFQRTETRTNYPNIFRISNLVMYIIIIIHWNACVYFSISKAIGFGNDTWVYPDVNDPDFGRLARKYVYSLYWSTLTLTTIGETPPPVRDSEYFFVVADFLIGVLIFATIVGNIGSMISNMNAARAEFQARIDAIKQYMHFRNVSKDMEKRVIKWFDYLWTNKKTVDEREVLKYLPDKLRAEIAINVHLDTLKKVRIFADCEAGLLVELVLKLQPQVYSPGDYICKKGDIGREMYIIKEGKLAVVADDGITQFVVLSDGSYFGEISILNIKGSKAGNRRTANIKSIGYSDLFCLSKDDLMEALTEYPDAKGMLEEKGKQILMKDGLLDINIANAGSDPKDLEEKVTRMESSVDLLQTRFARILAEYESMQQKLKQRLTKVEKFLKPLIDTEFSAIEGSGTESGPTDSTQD
Sequence of UniProt P54761 (whole entry, looked up): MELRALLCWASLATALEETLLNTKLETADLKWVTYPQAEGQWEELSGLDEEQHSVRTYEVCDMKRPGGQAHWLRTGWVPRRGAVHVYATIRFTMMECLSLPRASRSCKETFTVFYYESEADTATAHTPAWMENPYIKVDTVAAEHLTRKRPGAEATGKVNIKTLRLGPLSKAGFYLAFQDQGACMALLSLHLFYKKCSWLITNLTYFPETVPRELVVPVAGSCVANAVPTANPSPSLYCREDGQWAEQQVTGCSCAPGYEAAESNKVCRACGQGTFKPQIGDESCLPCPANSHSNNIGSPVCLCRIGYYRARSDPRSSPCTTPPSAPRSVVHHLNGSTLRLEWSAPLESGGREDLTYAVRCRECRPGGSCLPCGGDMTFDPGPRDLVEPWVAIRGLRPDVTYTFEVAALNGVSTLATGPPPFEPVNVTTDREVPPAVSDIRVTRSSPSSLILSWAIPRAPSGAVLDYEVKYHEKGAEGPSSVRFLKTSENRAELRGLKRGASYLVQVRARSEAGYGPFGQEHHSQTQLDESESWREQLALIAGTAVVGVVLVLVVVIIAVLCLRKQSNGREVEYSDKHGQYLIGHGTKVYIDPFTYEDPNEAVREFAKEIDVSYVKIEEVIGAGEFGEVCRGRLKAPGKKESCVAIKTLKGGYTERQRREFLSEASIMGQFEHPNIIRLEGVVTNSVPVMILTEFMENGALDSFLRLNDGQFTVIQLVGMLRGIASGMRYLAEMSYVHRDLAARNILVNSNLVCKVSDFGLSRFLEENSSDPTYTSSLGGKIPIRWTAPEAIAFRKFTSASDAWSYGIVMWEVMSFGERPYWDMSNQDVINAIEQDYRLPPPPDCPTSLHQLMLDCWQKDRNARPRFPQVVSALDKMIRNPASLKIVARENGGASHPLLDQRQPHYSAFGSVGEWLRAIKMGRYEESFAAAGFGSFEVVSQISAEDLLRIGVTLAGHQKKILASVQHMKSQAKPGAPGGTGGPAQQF

`NS(=O)(=O)c1ccc(N2N=C(C(F)(F)F)C(O)C2c2ccc(F)cc2F)cc1` (stereo not shown) gave an IC80 of over 500000 nM (Prostaglandin G/H synthase 1 (Canis lupus familiaris, UniProt Q8HZR1); TXB2 formation, inhibitor; clotting dog whole blood; 1 h, 37 °C).
`O=C(O)Cc1ccccc1O` gave a -TΔS of 3.79 ± 0.87 kcal/mol (C1-hpah; ITC; pH 7).
`COc1cc(F)c(C(C)C)cc1C1=C(CN2C(=O)O[C@H](c3cc(C(F)(F)F)cc(C(F)(F)F)c3)[C@@H]2C)CC(C)(C)CC1`: “time of maximum inhibition” 7.3 h (Cholesteryl ester transfer protein (Homo sapiens, UniProt P11597); enzyme activity; healthy male subjects, plasma; oral, 400 mg single dose).
`CCN(CC)c1ccc2cc(/C=C3\N=C(C)N(C)C3=O)c(=O)oc2c1` has a Kd of 1370 nM (T1, DNA G4 pilE G-quadruplex (Neisseria gonorrhoeae); fluorescence titration; pH 7.4, K+ 100 mM).
`O=C(CCn1ccc2ccc(Cl)cc21)N(c1ccc(F)cc1)c1ccc(F)cc1` — result for “maximum fold increase”: 4.4 ± 2.7 (Proteasome subunit alpha type-2/Proteasome subunit alpha type-6, 20S proteasome (Homo sapiens, UniProt P25787+P60900); proteolysis, activator, fluorogenic peptide; purified 20S proteasome; up to 30 µM, together with: Suc-LLVY-AMC, Z-LLE-AMC, Boc-LRR-AMC; baseline: vehicle).
The Kd ratio of `CC[C@H](C)[C@H](NC(=O)[C@H](CCCCN)NC(=O)[C@H](CCCCN)NC(=O)[C@@H](NC(=O)[C@H](CCC(=O)O)NC(=O)[C@H](CCC(=O)O)NC(=O)[C@H](CCC(=O)O)NC(=O)[C@H](CO)NC(=O)[C@H](CC(C)C)NC(=O)[C@H](CC(=O)O)NC(=O)[C@H](CC(C)C)NC(=O)CNC(=O)[C@H](CCCNC(=N)N)NC(=O)[C@H](CC(C)C)NC(=O)[C@H](CO)NC(=O)CNC(=O)CNC(=O)CNC(=O)CCCC[C@@H]1SC[C@@H]2NC(=O)N[C@@H]21)C(C)C)C(=O)N[C@@H](CC(C)C)C(=O)N[C@@H](CC(=O)O)C(=O)N[C@@H](CCC(=O)O)C(=O)N[C@@H](C)C(=O)N[C@H](C(=O)N[C@@H](CCCCN)C(=O)N[C@@H](CC(=O)O)C(=O)O)C(C)C` is reported as 0.9 (Fab B11 antibody (human); binding, biolayer interferometry; baseline: alanine mutant over wild type).
`CC(C)[C@H](C(=O)Nc1ncc(F)s1)c1ccc(Cl)cc1` — result for “potency and slope change”: “increased” (Free fatty acid receptor 2, with β-arrestin 2 (FFAR2, Homo sapiens, UniProt O15552); β-arrestin-2 recruitment, NanoBiT; cells expressing human FFAR2; concentration not given, together with: acetate at fixed concentrations).
For `O=C([O-])CN(CCN(CC(=O)[O-])Cc1cc(CCC(=O)NCCCCCC(=O)NCCCC[C@H](NC(=O)N[C@@H](CCC(=O)O)C(=O)O)C(=O)O)ccc1O)Cc1cc(CCC(=O)O)ccc1[O-].[68Ga+3]`, “tumour-to-normal tissue ratio” read 11.3 ± 10.7 (Glutamate carboxypeptidase 2 (FOLH1, Homo sapiens, UniProt Q04609); PET/CT; prostate cancer patients, bone metastases; baseline: bone metastases over liver).
For `C=C1CN(S(=O)(=O)c2ccc(C)cc2)CCCN(Cc2ccccc2)CCCN(S(=O)(=O)c2ccc(C)cc2)C1`, protein level read “inhibited” (Endoplasmic reticulum lectin 1 (ERLEC1, Homo sapiens, UniProt Q96DZ1); inhibitor, Western blot, item: ERLEC1; HEK-293T transfected; 10 µM, 24 h).
`Oc1c(C(Nc2nc3ccccc3s2)c2cccc(OCc3ccccc3)c2)ccc2cccnc12` (stereo not shown) gave a Hill slope of 1.05 ± 0.05 (Genome polyprotein, NS2B-NS3 protease (Dengue virus type 2, UniProt P14340); enzyme activity, inhibitor; 0.1% CHAPS, together with: Bz-Nle-Lys-Arg-Arg-AMC substrate).
With `CC[C@H](C)[C@H](NC(=O)CNC(C)=O)C(=O)N[C@@H](CCCNC(=N)N)C(=O)N[C@@H](CCC(=O)O)C(=O)N[C@@H](C)C(=O)N[C@H](C(=O)N[C@@H](CC(C)C)C(=O)N[C@@H](CCCNC(=N)N)C(=O)N[C@@H](C)C(=O)N[C@@H](Cc1c[nH]c2ccccc12)C(=O)N[C@@H](CCC(=O)O)C(=O)N[C@@H](CCCNC(=N)N)C(=O)N[C@@H](CCCNC(=N)N)C(=O)N[C@@H](Cc1ccc(O)cc1)C(=O)NCC(=O)N[C@@H](Cc1ccccc1)C(=O)N1CCC[C@H]1C(=O)N[C@@H](CCCNC(=N)N)C(=O)N1CCC[C@H]1C(=O)N[C@@H](CC(C)C)C(=O)N[C@@H](CCCNC(=N)N)C(=O)N[C@@H](CO)C(=O)N[C@@H](CCC(=O)O)C(N)=O)[C@@H](C)O` the binding stoichiometry was 0.93 ± 0.01 (Antirepressor protein CarS (carS, Myxococcus xanthus, UniProt Q06911); ITC; concentration not given, pH 7.5, 20 °C).
`CCc1cc(C)n2nc(-c3ccc(OCC[18F])cc3)c(CC(=O)N(CC)CC)c2n1`: “k3 rate constant” 0.232 ± 0.026 min⁻¹ (Translocator protein (Tspo, Rattus norvegicus, UniProt P16257); two-tissue compartment model; rat C6 glioma model, tumor; 60 min dynamic PET).
With `CCOC(=O)[C@H](CCCNC(N)=O)NC(=O)[C@H](Cc1c[nH]c2ccccc12)NC(=O)[C@@H]1CCCCN1C(=O)[C@H](Cc1ccccc1)N(C)C(=O)CCl` the kinact/KI was 740 M⁻¹ s⁻¹ (Peptidyl-prolyl cis-trans isomerase NIMA-interacting 1 (PIN1, Homo sapiens, UniProt Q13526); cell-free assay, FP).
For `COc1ccc(NC(=O)CCc2ccccc2)c(C)n1`, the specific activity was under 1 pmol/min/µg (Carboxylesterase 3 (CES3, Homo sapiens, UniProt Q6UWW8); substrate; 50 µM, pH 8, 37 °C, enzyme purity 3%).
`Cc1ccc(-c2ccccn2)cc1C(=O)NCCCCCCCCNC(=O)CNC(=O)CNC(=O)[C@H](CCCCN)NC(=O)[C@H](CCCCN)NC(=O)[C@@H](N)CCCCN` — result for “apparent association constant”: 910000 ± 10000 M⁻¹ (Calmodulin-1 (CALM1, Homo sapiens, UniProt P0DP23); binding, quartz crystal microbalance; 25 °C, no Ca2+).
With `Cc1cc(N2CC[C@@](C#N)(C3(C)CC3)C2=O)cc(C(=O)NCc2cc(F)cc(-c3cnn(C)c3)c2)n1` the melting temperature was 81.5 °C (Proline--tRNA ligase (Plasmodium falciparum, UniProt Q8I5R7); thermal shift; together with: L-proline 2 mM).
With `CC1=C(/C=C/C(C)=C/C=C/C(C)=C/CO)C(C)(C)CCC1` the Hill coefficient was 1.4 (Cyclic nucleotide-gated channel alpha-1 (CNGA1, Bos taurus, UniProt Q00194); cGMP-activated current, inhibitor, inside-out patch clamp; Xenopus oocytes; +100 mV, together with: 2 mM cGMP).
The -TΔS of `O=C(O)CCc1ccc(O)cc1` is reported as 0.14 ± 0.04 kcal/mol (C1-hpah; ITC; pH 7).
`NC(=O)C[C@H](NC(=O)[C@H](CC(N)=O)NC(=O)[C@H](CCC(=O)O)NC(=O)[C@@H](N)CS)C(=O)O` gave a remaining activity of 37% (PPO3; enzyme activity, inhibitor; 200 µM).
With `O=P1(O)OC[C@H]2O[C@@H](n3cnc4cncnc43)[C@H](O)[C@@H]2OP(=O)(O)OC[C@H]2O[C@@H](n3cnc4cncnc43)[C@H](O)[C@@H]2O1` the ΔΔG binding was 5.1 kcal/mol (ydaO riboswitch wild type (Bacillus subtilis); competition gel-shift; concentration not given; baseline: c-di-AMP).
`Cc1ccc(C(=O)Nc2cccc(C(F)(F)F)c2)cc1Nc1nc(-c2cccnc2)nc2c1cnn2C`: “lung tissue concentration” about 1 nmol/g (Ephrin type-B receptor 4 (Mus musculus, UniProt P54761); receptor phosphorylation, inhibitor; mouse, lung; oral, 50 mg/kg).
`C=C1C(=O)O[C@@H]2[C@H]3C(CO)=CC(=O)C3=C(C)C[C@H](O)[C@@H]12` — result for “binding free energy”: -5.69 kcal/mol (Alpha-glucosidase MAL12 (MAL12, Saccharomyces cerevisiae S288c, UniProt P53341); fluorescence quenching; 310 K).
`CC(=O)N1CCC[C@H]1C(=O)N[C@@H](CC(C)C)C(=O)NCC(=O)N[C@@H](CC(C)C)C(=O)N[C@@H](CCCNC(=N)N)C(=O)N[C@@H](CO)C(=O)N[C@@H](CCCCN)C(=O)O` gave a hydrolysis product of 71% (Matrix metalloproteinase-9 (MMP9, Homo sapiens, UniProt P14780); substrate, HPLC; 500 µM, 72 h, pH 7.5, 37 °C).
The Kd of `[Ru+2].[Ru+2].c1cnc2c(c1)c1nc(-c3ccc(OCCOCCOc4ccc(-c5nc6c7cccnc7c7ncccc7c6[nH]5)cc4)cc3)[nH]c1c1cccnc12.c1cnc2c(ccc3nccnc32)n1.c1cnc2c(ccc3nccnc32)n1.c1cnc2c(ccc3nccnc32)n1.c1cnc2c(ccc3nccnc32)n1` is reported as 370 nM (T2, DNA hairpin, hairpin, TTTT loop; BLI; pH 7.04, Na+ 100 mM).
With `COc1ccc(-c2cc(C(F)(F)F)nc(S(=O)(=O)CCCC(=O)Nc3c(F)cc(F)cc3Br)n2)cc1OC` the Emax was 52 ± 3.7% (Vasopressin V2 receptor (AVPR2, Homo sapiens, UniProt P30518); cAMP accumulation, positive allosteric modulator; CHO-K1 overexpressing AVPR2; together with: vasopressin at EC20).
Under “bound ligand fraction”, `CCN(CC)C(=O)c1ccc(O)c(OC)c1` is recorded as 0.28 mol % (Heat shock protein HSP 90-alpha, N-terminal domain (HSP90AA1, Homo sapiens, UniProt P07900); binding, ligand-observed NMR titration; ligand to protein ratio 272).
With `CC(C)C[C@H](NC(=O)[C@H](CC(C)C)NC(=O)[C@H](CCC(=O)O)NC(=O)[C@@H](N)CS)C(=O)O` the remaining activity was 59.5% (PPO3; enzyme activity, inhibitor; 100 µM).
The signal attenuation of `CCC1(CO)CCCN(C(=O)c2ccc(CSC)o2)C1` (stereo not shown) is reported as 20.1 ± 10% (DNA dC->dU-editing enzyme APOBEC-3B, C-terminal domain (Homo sapiens, UniProt Q9UH17); binding, 1H CPMG NMR; 20 µM protein).

Some of these lines once more:
`C=C1C(=O)O[C@@H]2[C@H]3C(CO)=CC(=O)C3=C(C)C[C@H](O)[C@@H]12` — result for “binding free energy”: -5.69 kcal/mol (Alpha-glucosidase MAL12 (MAL12, Saccharomyces cerevisiae S288c, UniProt P53341); fluorescence quenching; 310 K).
With `Cc1cc(N2CC[C@@](C#N)(C3(C)CC3)C2=O)cc(C(=O)NCc2cc(F)cc(-c3cnn(C)c3)c2)n1` the melting temperature was 81.5 °C (Proline--tRNA ligase (Plasmodium falciparum, UniProt Q8I5R7); thermal shift; together with: L-proline 2 mM).
